Experimental data pooled from the literature.
Protocols differ between the studies behind these lines. “And” joins repeats or separate records; there may be more than shown. Numbers after ± are the reported error.

COc1cccc(OC)c1-c1cc(C(=O)NC2(C(=O)O)C3CC4CC(C3)CC2C4)nn1-c1ccc(C(=O)N(C)CCOCCOCCN(C)C(=O)[C@H](CCCCNC(=O)[C@H](CC(C)C)NC(=O)C2OC2C(=O)O)NC(=O)CN2CCN(CC(=O)[O-])CCN(CC(=O)[O-])CCN(CC(=O)[O-])CC2)cc1C(C)C.[177Lu+3] (mixture of isomers) — tumour-to-liver ratio (mouse, HT-29 xenograft; 24 h post injection, biodistribution; reference: tumour over liver uptake): 1.85
CN1CCC[C@]1(C)/C=C/S(=O)(=O)NC(=O)Nc1c2c(cc3c1C(O)CC3)CCC2 (stereo partly shown) — AUC(0-tau) accumulation ratio (human, plasma; oral, 12.5 mg twice daily of parent drug, metabolite of dosed drug; reference: day 14 over day 1): 2.4
CC(C)[C@H](NC(=O)[C@H](Cc1c[nH]c2ccccc12)NC(=O)[C@H](CCCNC(=N)N)NC(=O)[C@H](CCCNC(=N)N)NC(=O)[C@@H](NC(=O)[C@@H](NC(=O)[C@H](CCCNC(=N)N)NC(=O)[C@@H](NC(=O)[C@@H](NC(=O)[C@H](CCCNC(=N)N)NC(=O)[C@H](CCCNC(=N)N)NC(=O)[C@@H](NC(=O)[C@H](Cc1c[nH]c2ccccc12)NC(=O)[C@H](CCCNC(=N)N)NC(=O)[C@H](CCCNC(=N)N)NC(=O)[C@@H](NC(=O)[C@H](CCCNC(=N)N)NC(=O)[C@H](CCCNC(=N)N)NC(=O)[C@@H](NC(=O)[C@H](Cc1c[nH]c2ccccc12)NC(=O)[C@H](CCCNC(=N)N)NC(=O)[C@@H](N)CCCNC(=N)N)C(C)C)C(C)C)C(C)C)C(C)C)C(C)C)C(C)C)C(C)C)C(=O)N[C@@H](CCCNC(=N)N)C(=O)N[C@@H](CCCNC(=N)N)C(=O)O — urinary glucose excretion (CD-1 mice; intravenous, 15 mg/kg, 6-24 h): 114 µg/day/g body weight
O=Cn1nnc2ccccc21 — degradation rate constant (chemical stability, HPLC-MS; borate buffered saline; pH 10.2, no N-acetyl-lysine): 0 h⁻¹
CN1C(=O)[C@@H](Cc2ccc(O)c(I)c2)NC(=O)CNC(=O)[C@H](Cc2ccc3ccccc3c2)NC(=O)[C@H](CCCNC(=N)N)NC(=O)[C@H]1CCCNC(=O)c1ccc(CNC(=O)CN2CCN(CC(=O)O)CCN(CC(=O)O)CCN(CC(=O)O)CC2)cc1 [lutetium-177 labelled] — total absorbed dose (1; human, extrapolated from mouse, Urinary bladder wall): 0.001 mGy/MBq
O=C([O-])CN1CCN(CC(=O)[O-])CCN(CC(CCCc2ccccc2[N+](=O)[O-])N(CC(=O)[O-])CC(=O)[O-])CC1.[177Lu+3] (stereo not shown) — intact radiolabelled complex (TLC; human serum; 279 h, pH 7, 37 °C): 99.8 ± 0.1%
CC1(C)C(=CC=C2CCCC(C=CC3=[N+](CCC[N+](C)(C)C)c4ccc(S(=O)(=O)O)cc4C3(C)C)=C2SCCOCCOCCC(=O)O)N(CCC[N+](C)(C)C)c2ccc(S(=O)(=O)O)cc21 — absorption maximum wavelength (DMSO, PBS and FBS; across solvents tested): 778 to 806 nm
Cc1c(Cc2ccc(OC(C)C(=O)O)cc2)c2ccc(C(=O)NC(C)c3ccc(C(C)(C)C)cc3)cc2n1C (mixture of isomers) — half-life (metabolic stability; mouse, liver microsomes): > 1 h
CC(C)(O)c1ncc([S@](N)(=O)=NC(=O)Nc2c3c(cc4c2CCC4)CCC3)s1 — share of subjects with TEAEs (item: nervous system disorders; healthy human subjects; oral, 100 mg, fed): 17%
CCCC[C@H](OC(C)=O)c1ccccc1C(=O)O — AUC(0-t) (beagle dogs, both sexes, whole blood; intravenous, 1.5 mg/kg single dose): 1.13 ± 0.181 µg·h/mL
COc1cc(N2CCN(C(=O)C3CCCN3)CC2)ccc1Nc1ncc(Cl)c(Nc2ccccc2P(C)(C)=O)n1 (stereo not shown) — body weight (nude mice, NCI-H3122 xenograft; intraperitoneal, 10 mg/kg every other day, day 3): 25.8 g and 22 g and 23.8 g and 23.5 g and 23 g
Cc1cc(F)ccc1-c1cc(N2C[C@H]3COC(O)CN3C[C@H]2CO)ncc1N(C)C(=O)C(C)(C)c1cc(C(F)(F)F)cc(C(F)(F)F)c1 (stereo partly shown) — AUC extrapolated (human, plasma; oral, 120 mg, geometric mean): 2.55%
CN1CCC[C@]1(C)/C=C/S(=O)(=O)NC(=O)Nc1c2c(cc3c1CCC3O)CCC2 (stereo partly shown) — AUC(0-tau) (human, plasma; oral, 100 mg twice daily of parent drug, day 14, metabolite of dosed drug): 808 µg·h/mL
Cc1nc(N)nc2c1C(=O)N[C@@H](c1ccc(F)cc1-c1cccc(OCC[18F])n1)C2 — SUV (ex vivo biodistribution; C57BL/6 mice, liver; intravenous, 1 MBq, 30 min): 3.33 ± 0.17
[2H]C1([2H])CC[C@@H](C[C@@H](C#N)NC(=O)[C@@H]2[C@@H]3[C@H](CN2C(=O)[C@@H](NC(=O)C(F)F)C(C)(C)C)C3(C)C)C(=O)N1 — intrinsic clearance (human hepatocytes; scaled to liver): < 8.9 mL/min/kg
Cc1[nH]c(=O)c(CNC(=O)c2cc(Cl)c3c(c2C)O[C@@](C)([C@H]2CC[C@H](N(C)C)CC2)O3)c(C)c1O — share of plasma radioactivity (human, plasma; oral, 200 mg): 14.9%
CCCCN1C(=O)c2cccc3c(NCCCCCN4CCOCC4)ccc(c23)C1=O — absorption maximum (acetonitrile): 432 nm
CC(C)C[C@H](NC(=O)[C@H](CCCNC(=N)N)NC(=O)[C@H](Cc1ccccc1)NC(=O)[C@H](Cc1ccccc1)NC(=O)[C@@H](NC(=O)[C@H](CO)NC(=O)[C@H](CO)NC(=O)[C@H](CC(=O)O)NC(=O)[C@H](CO)NC(=O)[C@H](CO)NC(=O)[C@H](CC(=O)O)NC(=O)[C@H](CO)NC(=O)[C@H](CO)NC(=O)[C@H](CC(=O)O)NC(=O)[C@H](CO)NC(=O)[C@H](CO)NC(=O)[C@H](CC(=O)O)NC(=O)[C@H](CO)NC(=O)[C@H](CO)NC(=O)[C@H](CC(=O)O)NC(=O)[C@H](CO)NC(=O)[C@H](CO)NC(=O)[C@H](CC(=O)O)NC(=O)[C@H](CO)NC(=O)[C@H](CO)NC(=O)[C@H](CC(=O)O)NC(=O)[C@H](CO)NC(=O)[C@H](CO)NC(=O)[C@@H](N)CC(=O)O)[C@@H](C)O)C(=O)N[C@@H](Cc1ccccc1)C(=O)N[C@@H](CC(N)=O)C(=O)N[C@@H](CCCNC(=N)N)C(=O)N[C@@H](C)C(=O)N[C@@H](CCCCN)C(=O)N[C@@H](CCCNC(=N)N)C(=O)N[C@@H](Cc1c[nH]cn1)C(=O)N[C@@H](Cc1c[nH]cn1)C(=O)NCC(=O)N[C@@H](Cc1ccc(O)cc1)C(=O)N[C@@H](CCCCN)C(=O)N[C@@H](CCCNC(=N)N)C(=O)N[C@@H](CCCCN)C(=O)N[C@@H](Cc1ccccc1)C(=O)N[C@@H](Cc1c[nH]cn1)C(=O)O — peptide concentration (HPLC-UV; human saliva; 2 h, 37 °C, with: initial 1 mg/mL): 0.988 mg/mL
O=C(Nc1cnccc1-c1ccc([18F])nc1)c1ccnc(NC(=O)C2CC2)c1 — SUV (FVB/NJ mice (both sexes), lung; intravenous, dose not given, 120 min): 0.113
C/C(N)=N/C(=N\S(=O)(=O)c1ccc(C(F)(F)F)cc1)N1C[C@H](c2ccccc2)C(c2ccc(Cl)cc2)=N1 — Tmax (male C57BL/6 mouse, lung; intravenous, 10 mg/kg): 0.25 h
CCCCN1C(=O)c2cccc3c(NCCCCCCN4CCOCC4)ccc(c23)C1=O — absorption maximum (ethyl acetate): 429 nm
CC[C@H](C)[C@H](NC(=O)[C@H](CCCCN)NC(C)=O)C(=O)N[C@@H](C)C(=O)N[C@@H](C)C(=O)N[C@@H](CC(C)C)C(=O)N[C@@H](CCCCN)C(=O)N[C@@H](CCC(=O)O)C(=O)N[C@@H](CCCCN)C(=O)N[C@H](C(=O)N[C@@H](C)C(=O)N[C@@H](C)C(=O)N[C@@H](CC(C)C)C(=O)N[C@@H](CCCCN)C(=O)N[C@@H](CCC(=O)O)C(=O)N[C@@H](CCCCN)C(=O)N[C@H](C(=O)N[C@H]1CSCc2ccccc2CSC[C@@H](C(=O)NCC(=O)N[C@@H](Cc2c[nH]c3ccccc23)C(N)=O)NC(=O)[C@H](CCCCN)NC(=O)[C@H](CC(C)C)NC(=O)[C@H](C)NC1=O)[C@@H](C)CC)[C@@H](C)CC — melting temperature (circular dichroism thermal melting; PBS; pH 7.4, single peptide 50 µM total): 39 °C
CCCCN1C(=O)c2cccc3c(NCCCCCCCCN4CCOCC4)ccc(c23)C1=O — absorption maximum (acetonitrile): 432 nm
COc1cccc(OC)c1-c1cc(C(=O)NC2(C(=O)O)C3CC4CC(C3)CC2C4)nn1-c1ccc(C(=O)N(C)CCOCCN(C)C(=O)[C@H](CCCCNC(=O)[C@H](CC(C)C)NC(=O)C2OC2C(=O)O)NC(=O)CN2CCN(CC(=O)[O-])CCN(CC(=O)[O-])CCN(CC(=O)[O-])CC2)cc1C(C)C.[177Lu+3] (mixture of isomers) — tumour-to-liver ratio (mouse, HT-29 xenograft; 72 h post injection, biodistribution; reference: tumour over liver uptake): 3.7
O=C(Nc1cnccc1-c1ccc([18F])cc1)c1ccnc(NC(=O)C2CC2)c1 — SUV (ex vivo gamma counting; FVB/NJ mice, both sexes, thalamus; intravenous, 120 min, mean, P-gp inhibitor pretreatment, with: tariquidar 15 mg/kg iv): 0.3
C=C(NC(=O)c1csc(-c2nc3c(cc2O)-c2nc(cs2)C(=O)NC(C(C)O)C(=O)NC(=C(C)OC)c2nc(cs2)C(=O)NC2c4nc(cs4)C(=O)NC(COC(=O)c4c5c6c(cccc6n4O)COC(=O)C(OC4CC(C)(O)C(N(C)C)C(C)O4)C2OC5)c2nc-3cs2)n1)C(N)=O (stereo not shown) — MRT(0-t) (ICR mice, Streptococcus pneumoniae ATCC 49169 infected, immunocompromised, blood; intravenous, 4 mg/kg/day three times daily): 6.48 h
Cc1c(Cc2cc(Cl)cc(O[C@H](C)C(=O)O)c2)c2ccc(C(=O)N[C@@H](C)c3ccc(C(C)(C)C)cc3)cc2n1CC(C)C — half-life (metabolic stability; mouse, liver microsomes): 0.422 h
CNC(=O)C1CCCN(C(=O)C2CC3CCC2N3C(=O)[C@@H]2C[C@@H](O)CN2C(=O)NCc2cccc(Cl)c2F)C1 (mixture of isomers) — intrinsic clearance (monkey liver microsomes): 21.6 µL/min/mg
Cc1nc(N)nc2c1C(=O)N[C@@H](c1ccc(F)cc1-c1cccc(O[11CH3])n1)C2 — SUV (ex vivo biodistribution; healthy mice, plasma; 60 min post-injection, baseline, vehicle pre-treatment): 0.3 ± 0.1
OCC1OC(n2cnc3c(NCc4ccc(Br)s4)ncnc32)C(O)C1O (stereo not shown) — half-life (beagle dog, blood; intravenous, 0.5 mg/kg): 8.5 h
CCCCN1C(=O)c2cccc3c(NCCCCN4CCOCC4)ccc(c23)C1=O — absorption maximum (methanol): 442 nm
Cc1cc(-c2ccc(C(=O)[C@@H]3CCCC[C@H]3C(=O)Nc3cnn4c3C(=O)NCC4)cc2)[nH]n1 — recovery of radioactivity per interval (human, urine; oral, 200 mg, 120-144 h; reference: dose): 0.01%
Cc1n[nH]c(C)c1CCCOc1cc(C(=O)NCCCCC(NC(=O)CN2CCN(CC(=O)[O-])CCN(CC(=O)[O-])CCN(CC(=O)[O-])CC2)C(=O)NCC2CCC(C(=O)NC(Cc3ccc4ccccc4c3)C(=O)NCCCCC(NC(=O)NC(CCC(=O)O)C(=O)O)C(=O)O)CC2)ccc1F.[68Ga+3] (stereo not shown) — tumour uptake (PET/CT; mice with 22Rv1 tumours; 2 h post-injection, no blocking): 13.9 ± 2.68 %ID/g
CN1CCC[C@]1(C)/C=C/S(=O)(=O)NC(=O)Nc1c2c(cc3c1CC(O)C3)CCC2 (stereo partly shown) — AUC(0-tau) accumulation ratio (human, plasma; oral, 12.5 mg twice daily of parent drug, metabolite of dosed drug; reference: day 14 over day 1): 2.6
Cc1noc(C)c1Cn1cc(N2C(=O)CN(Cc3cccc(OS(=O)(=O)O)c3)C2=O)cn1 — plasma concentration (Sprague-Dawley rat, male; oral, 30 mg/kg of parent drug, 4 h): 3370 ng/mL
O=C([O-])CN1CCN(CC(=O)[O-])CCN(C(CO)C(O)CO)CCN(CC(=O)[O-])CC1.[Dy+3] (stereo not shown) — cumulative faecal excretion (ICP-MS; cynomolgus monkey; 58 days; reference: dose): 0.4%
CN(O)C(=O)CCC(=O)NCCCN(CCCCN(CCCNC(=O)CCC(=O)N(C)O)C(=O)CCC(=O)N(C)O)C(=O)CCC(=O)N(C)O.[89Zr] — intact complex (radio-TLC; aqueous buffer; 7 d, pH 7, 37 °C, 89Zr-labelled complex, with: DTPA 100-fold excess): 97.8 ± 1.1%

Some of these lines once more:
O=C(Nc1cnccc1-c1ccc([18F])cc1)c1ccnc(NC(=O)C2CC2)c1 — SUV (ex vivo gamma counting; FVB/NJ mice, both sexes, thalamus; intravenous, 120 min, mean, P-gp inhibitor pretreatment, with: tariquidar 15 mg/kg iv): 0.3
C=C(NC(=O)c1csc(-c2nc3c(cc2O)-c2nc(cs2)C(=O)NC(C(C)O)C(=O)NC(=C(C)OC)c2nc(cs2)C(=O)NC2c4nc(cs4)C(=O)NC(COC(=O)c4c5c6c(cccc6n4O)COC(=O)C(OC4CC(C)(O)C(N(C)C)C(C)O4)C2OC5)c2nc-3cs2)n1)C(N)=O (stereo not shown) — MRT(0-t) (ICR mice, Streptococcus pneumoniae ATCC 49169 infected, immunocompromised, blood; intravenous, 4 mg/kg/day three times daily): 6.48 h
